Results of several laboratories.
Compare with care: the assays were run in different laboratories. ± gives the spread as reported.
Organism: Plasmodium yoelii

Compound = O=c1c2cc(F)c(Oc3ccc(OC(F)(F)F)cc3)cc2[nH]c2cc(Cl)cc(F)c12; assay = antimalarial activity; test system = CF1 mouse; conditions = oral, once daily for 4 days; endpoint = ED50; value = 0.19 mg/kg
Compound = FC(F)(F)Oc1ccc(OC2=CC(c3ccc[nH]3)=N/C2=C\NC23CC4CC(CC(C4)C2)C3)cc1; test system = CF1 mice; conditions = oral, 25 mg/kg daily for 4 days, day 5; endpoint = parasitemia reduction; value = > 80%
Compound = O=c1c2ccc(OCc3ccc(C(F)(F)F)cc3)cc2[nH]c2cc(Cl)cc(F)c12; assay = antimalarial activity; test system = CF1 mouse; conditions = oral, once daily for 4 days; endpoint = ED50; value = 0.38 mg/kg
Compound = Cc1[nH]c(C)c(-c2ccc(CCc3ccc(F)cc3F)cc2)c(=O)c1Cl; test system = 17XL; conditions = 384-well; endpoint = IC50; value = 143 ± 113 nM
Compound = CCCCCc1cc(/C=C2\N=C(c3ccc[nH]3)C=C2Oc2ccc(OC(F)(F)F)cc2)[nH]c1C.Cl; assay = parasitaemia suppression; test system = mouse; conditions = oral, 4 days; endpoint = ED50; value = 2.19 mg/kg/day
Compound = O=c1c2ccc(Oc3ccc(OC(F)(F)F)cc3)cc2[nH]c2ccc(F)c(Cl)c12; assay = antimalarial activity; test system = CF1 mouse; conditions = oral, once daily for 4 days; endpoint = ED50; value = 0.28 mg/kg
Compound = CSc1ccc(C=CC(=O)NC(=O)c2ccccc2O)cc1; test system = 17XL; conditions = 384-well; endpoint = IC50; value = 283 ± 154 nM
Compound = CCOC1=CC(c2ccc[nH]2)=N/C1=C\c1cc(Cc2ccc(OC(F)(F)F)cc2)c(C)[nH]1.Cl; test system = CF1 mice; conditions = oral, 10 mg/kg daily for 4 days, day 5; how to read = relative to: vehicle; endpoint = parasitaemia reduction; value = 100%
Compound = O=c1c2ccc(OCc3cccc(OC(F)(F)F)c3)cc2[nH]c2cc(F)cc(Cl)c12; assay = antimalarial activity; test system = CF1 mouse; conditions = oral, once daily for 4 days; endpoint = ED50; value = 0.29 mg/kg
Compound = Cc1ccc2[nH]c3ccccc3c(=O)c2c1; test system = 17XL; conditions = 384-well; endpoint = IC50; value = 1100 ± 232 nM
Compound = COC1=CC(c2ccc[nH]2)=N/C1=C\c1[nH]c(Cc2ccc(OC(F)(F)F)cc2)cc1Cc1ccc(OC(F)(F)F)cc1; assay = parasitaemia; test system = mouse; conditions = 4-day treatment, parasitaemia day 5; endpoint = ED50; value = 2.48 mg/kg/day
Compound = O=c1c2ccc(Oc3cccc(OC(F)(F)F)c3)cc2[nH]c2cc(Cl)cc(F)c12; assay = antimalarial activity; test system = CF1 mouse; conditions = oral, once daily for 4 days; endpoint = ED50; value = 0.84 mg/kg
Compound = CCOC1=CC(c2ccc[nH]2)=N/C1=C\c1cc(Cc2ccc(Cl)cc2)c(C)[nH]1.Cl; test system = CF1 mice; conditions = oral, 10 mg/kg daily for 4 days, day 5; how to read = relative to: vehicle; endpoint = parasitaemia reduction; value = 100%
Compound = Cc1nc2ccccc2c(O)c1-c1ccc(Cl)cc1; test system = 17XL; conditions = 384-well; endpoint = IC50; value = 748 ± 30 nM
Compound = COC1=CC(c2ccc[nH]2)=N/C1=C\c1[nH]c(-c2ccccc2)cc1-c1ccccc1; test system = CF1 mice; conditions = oral, 25 mg/kg daily for 4 days, day 5; how to read = relative to: vehicle; endpoint = parasitaemia reduction; value = 100%
Compound = CC(C)(C)OC(=O)N1CCC(Oc2ccc3c(=O)c4c(F)cc(Cl)cc4[nH]c3c2)CC1; assay = antimalarial activity; test system = CF1 mouse; conditions = oral, once daily for 4 days; endpoint = ED50; value = 0.32 mg/kg
Compound = Cc1[nH]c(C)c(-c2ccc(CCc3ccc(F)cc3F)cc2)c(=O)c1Br; test system = 17XL; conditions = 384-well; endpoint = IC50; value = 49 ± 12 nM
Compound = COC1=CC(c2ccc[nH]2)=N/C1=C\c1cc(Cc2ccc(OC(F)(F)F)cc2)c(C)[nH]1.Cl; assay = parasitaemia; test system = mouse; conditions = 4-day treatment, parasitaemia day 5; endpoint = ED90; value = 6.11 mg/kg/day
Compound = Cc1nc(C)c(-c2ccc(Oc3ccc(OC(F)(F)F)cc3)cc2)c(O)c1I; test system = 17XL; conditions = 384-well; endpoint = IC50; value = 198 ± 40 nM
Compound = CCC1=C(CC)/C(=C/c2[nH]c(Cc3ccc(Cl)cc3)cc2Cc2ccc(Cl)cc2)N=C1c1ccc[nH]1; test system = CF1 mice; conditions = oral, 25 mg/kg daily for 4 days, day 5; how to read = relative to: vehicle; endpoint = parasitaemia reduction; value = 100%
